# Measured values of several laboratories.
# A part holds a random share of what one study measured.

# Block 1 — method: protein binding microarray; form: double-stranded DNA, one strand shown; matrix: in vitro; tested at: not given; relative to: not given; direction: higher = stronger binding
# Target: Histone acetyltransferase KAT6A, winged helix 2, GST fusion (KAT6A, Homo sapiens, UniProt Q92794, residues 85-181)
# Notes: 8-mer, flanks averaged, mean of 2 arrays, mostly near background
# Residues (chain): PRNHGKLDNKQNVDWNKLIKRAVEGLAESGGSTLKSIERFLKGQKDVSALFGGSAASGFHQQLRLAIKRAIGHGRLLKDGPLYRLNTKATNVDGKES
Strand,E-score
AGACACCA,0.152
TAGCTAAA,0.0576
AAGCTTCA,-0.0558
ATGCAAGA,0.0349

# Block 2 — method: RNA Bind-n-Seq; form: RNA; matrix: in vitro; tested at: 1 µM; notes: whole 134-nt RNA, ends assumed; together with: 150 mM KCl; relative to: input library; direction: higher = stronger binding
# Target: Ras GTPase-activating protein-binding protein 1, C-terminal RGG region (G3BP1, Homo sapiens, UniProt Q13283)
# Sequence of UniProt Q13283 (whole entry, looked up): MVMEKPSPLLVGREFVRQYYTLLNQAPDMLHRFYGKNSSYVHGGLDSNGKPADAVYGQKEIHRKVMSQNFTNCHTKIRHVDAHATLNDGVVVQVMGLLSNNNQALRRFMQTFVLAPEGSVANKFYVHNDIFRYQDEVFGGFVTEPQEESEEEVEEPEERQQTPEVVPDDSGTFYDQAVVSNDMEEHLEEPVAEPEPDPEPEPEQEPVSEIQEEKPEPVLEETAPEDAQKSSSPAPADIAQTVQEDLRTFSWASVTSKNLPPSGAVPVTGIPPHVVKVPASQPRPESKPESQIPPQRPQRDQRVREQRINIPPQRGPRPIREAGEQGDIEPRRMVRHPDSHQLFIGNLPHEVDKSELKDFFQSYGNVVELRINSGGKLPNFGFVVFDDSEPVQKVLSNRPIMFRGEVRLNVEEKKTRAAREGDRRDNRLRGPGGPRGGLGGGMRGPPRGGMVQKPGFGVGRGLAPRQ
Strand,log2 enrichment
GGGAGUUCUACAGUCCGACGAUCCUCAAGUCCUGUGCUACACAUCGUAUGUACCGAAUCGGGGCCGGGCCGGCCGGGAAAGUAUUAUGUUACGCCGUUCGGAUCUGCACUUCCUGGAAUUCUCGGGUGUCAAGG,-1.04
GGGAGUUCUACAGUCCGACGAUCGCAGGAAGUAAAAACAAAUGGAAAUGCUUCGGAUAGUGGCAGGGGUGGGGGUUUCUAAGGAAAGGGUGGGAUGGGAGUGGGUAAAGAGUUUGGAAUUCUCGGGUGUCAAGG,0.911
GGGAGUUCUACAGUCCGACGAUCUCCUCAAGUCCUGUGCUACACAUCGUAUGUACCGAAUCGGUGGGUGGUGGGAAAGUAUUAUGUUACGCCGUUCGGAUCUGCACUUCCAGCUGGAAUUCUCGGGUGUCAAGG,-0.218

# Further values, each from its own experiment
# UNK zinc fingers 1-6, GST-SBP tag: RING finger protein unkempt homolog, zinc fingers 1-6, GST-SBP tag (UNK, Homo sapiens, UniProt Q9C0B0, residues 30-357)
# Sequence of UniProt Q9C0B0 (30-357, looked up): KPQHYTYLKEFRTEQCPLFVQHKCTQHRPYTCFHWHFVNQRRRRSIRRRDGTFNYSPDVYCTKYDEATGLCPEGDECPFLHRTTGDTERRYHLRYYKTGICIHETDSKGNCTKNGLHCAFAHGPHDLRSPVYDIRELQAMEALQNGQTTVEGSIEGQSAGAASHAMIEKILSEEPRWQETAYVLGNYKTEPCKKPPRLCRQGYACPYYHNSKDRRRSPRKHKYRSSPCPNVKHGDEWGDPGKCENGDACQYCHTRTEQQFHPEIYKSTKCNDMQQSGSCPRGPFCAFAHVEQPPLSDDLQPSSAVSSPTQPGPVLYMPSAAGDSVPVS
Substance,target,assay,system,setting,how to read,quantity,value
GGGAGUUCUACAGUCCGACGAUCUCACACCUUCUUAUAAAGUGUGAACAAGGAAGGUCAUGUUUUUGUGGGUAUUUUGUCAGACUCCGAGGUUUCAUUUCAGGGCAUAGUCAAAGGCAUCAUCCUCCCAACUACCCACUUGAUCAACAGAGGAUUGAGCAUCA,"UNK zinc fingers 1-6, GST-SBP tag",RNA Bind-n-Seq,"RNA, in vitro","not given, RNA with constant flanks, ends assumed","relative to: input RNA pool, higher = stronger binding",bound/input enrichment,0.275 ratio
"PhoQ, residues 284 288 289 292 302 303 SLKLQV","PhoP, residues 12 14 15 18 19 SGWQI (Escherichia coli, UniProt P23836)","Sort-seq, refers to: YFP reporter",E. coli,"PhoQ-PhoP variant library, together with: 10 µM Mg2+","relative to: high Mg2+ state, higher = stronger signaling",fold induction,15.5
GGGAGUUCUACAGUCCGACGAUCUUUGUAUUUAUGCUAAGCACACGUGCUGGUGGUCUGGGCAUCAAUCUUGCAACUGCUGAUGCCGUCAUUUUAUAUGACUCAGAUUGGAAUCCGCAAGUUGAUCUUCAGGCUAUGGACCGUCAACAGAGGAUUGAGCAUCA,"UNK zinc fingers 1-6, GST-SBP tag",RNA Bind-n-Seq,"RNA, in vitro","not given, RNA with constant flanks, ends assumed","relative to: input RNA pool, higher = stronger binding",bound/input enrichment,0.13 ratio
GGGAGUUCUACAGUCCGACGAUCUAGGACACAUUCCCAGAAGAGCGGAAAGAUCAUUGACGUGGAACUACACACGAAGUGUAAUCCGUGGGGGAAAAAAUAUUUUUUAAACAAAGGAUAUAACCAUAUUUAGUUGUACAGUAACAACAGAGGAUUGAGCAUCA,"UNK zinc fingers 1-6, GST-SBP tag",RNA Bind-n-Seq,"RNA, in vitro","not given, RNA with constant flanks, ends assumed","relative to: input RNA pool, higher = stronger binding",bound/input enrichment,2.21 ratio

# Excerpt of the above (block 1):
Strand,E-score
TAGCTAAA,0.0576
